# Values quoted from earlier work, collected from citations in different studies.
# Each numbered part shows a few of the values that one paper quotes.

# Sample 1
# Organism: Cryptosporidium parvum
# Concentration: concentration not given
Structure (SMILES),activity
CNCCC=C1c2ccccc2CCc2ccccc21,inactive
Cn1cnc([N+](=O)[O-])c1Sc1ncnc2nc[nH]c12,inactive
O=C1Nc2ccccc2/C1=C1/Nc2ccccc2C1=O,inactive
CC(C)NCC(O)COc1ccc(CCOCC2CC2)cc1 (stereo not drawn),inactive
CNCC(O)c1ccc(O)c(O)c1 (stereo not drawn),inactive
CNCCCC12CCC(c3ccccc31)c1ccccc12,inactive
CNCC[C@H](Oc1cccc2ccccc12)c1cccs1,inactive
Clc1ccc2nsnc2c1NC1=NCCN1,inactive
NCCc1ccc(O)c(O)c1,inactive
CN/C(=N/CCSCc1nc[nH]c1C)NC#N,inactive
CCc1cc(C(N)=S)ccn1,inactive
Nc1c2c(nc3ccccc13)CCCC2,inactive
Cc1cccc(C)c1OCC(C)N (stereo not drawn),inactive
NC(N)=Nc1nc(CSCCC(N)=NS(N)(=O)=O)cs1,inactive
CN1CCCCC1CCN1c2ccccc2Sc2ccc([S+](C)[O-])cc21 (stereo not drawn),inactive

# Sample 2
# Target: dopamine transporter
Structure (SMILES),IC50 [µM]
CC(C)(C)NC(=O)[C@H]1CC[C@H]2[C@@H]3CC[C@H]4NC(=O)C=C[C@]4(C)[C@H]3CC[C@]12C,> 10
COc1ccc2[nH]c([S+]([O-])Cc3ncc(C)c(OC)c3C)nc2c1 (stereo not drawn),> 10
CC(C)CN(C[C@@H](O)[C@H](Cc1ccccc1)NC(=O)O[C@H]1CCOC1)S(=O)(=O)c1ccc(N)cc1,> 10

# Further values, each from its own experiment
SMILES,target or system,test,system,conditions,quantity,result
O=c1c2ccccc2[nH]c2ccccc12,,,,,logP,3
O=C(Oc1ccccc1)c1ccccc1,,logD7.4 calibration curve,,,logP,3.6
C[C@@H](c1ncncc1F)[C@](O)(Cn1cncn1)c1ccc(F)cc1F,,,octanol/water,,logP,1.66
COc1cc2c(Oc3ccc(NC(=O)C4(C(=O)Nc5ccc(F)cc5)CC4)cc3F)ccnc2cc1OCCCN1CCOCC1,A 172,,,,IC50,1.33 µM
CCOc1ccc(S(=O)(=O)Nc2ccc(Cl)cc2C#Cc2cnc(C(=O)O)cc2OC)c2ncccc12,PTGER2,,,,IC50,> 30 µM
CC(=O)Nc1ccc(O)cc1,,,octanol/water,,logP,0.31
CN(C)C(=O)Cn1cc(-c2nc([C@@](C)(c3ccc(-c4cnc(N)nc4)cc3)C3CC3)no2)cn1,ALOX5AP,cellular activity,,,IC50,0.045 µM
Cc1nc(NC(=O)N2CCC[C@H]2C(N)=O)sc1-c1ccnc(C(C)(C)C(F)(F)F)c1,A 172,,,,IC50,119 µM
CO[C@H]1C[C@@H]2CC[C@@H](C)[C@@](O)(O2)C(=O)C(=O)N2CCCC[C@H]2C(=O)O[C@H]([C@H](C)C[C@@H]2CC[C@@H](OC(=O)NCCOCCOCCOCCOCCOCCOCCOCCOCCC(=O)N3CCc4cc(Cn5nc(-c6ccc7oc(N)nc7c6)c6c(N)ncnc65)ccc4C3)[C@H](OC)C2)C[C@@H](O)[C@H](C)/C=C(\C)[C@@H](O)[C@@H](OC)C(=O)[C@H](C)C[C@H](C)/C=C/C=C/C=C/1C,FKBP12,binding,,,Kd,0.065 µM
Cn1nc(C(F)(F)F)cc1-c1cnc(N2CCc3cc(S(=O)(=O)Nc4c(F)cc(Cl)cc4F)cc(N4CCCC4=O)c32)nc1,MGAT2 (human),cellular activity,,,IC50,0.16 µM
CC(C)n1nc(-c2ccc3oc(N)nc3c2)c2c(N)ncnc21,,,patients,"dose not given, dose-escalation phase",hyperglycemia incidence,65%
C[C@H](c1cccc(C#N)c1)n1cc(Cl)cc(C(N)=O)c1=N,ADRA1D,,,,Ki,0.0016 µM
